Measured values of several laboratories.
Each line is one published result; not all experiments were run side by side.

Molecule | target or system | assay | system | setting | scale | endpoint | value
RYRIGNYKL | – | AIM | peptide, CD8+ T cells from PBMC, human donors | HLA-A*30:01 restricted, unit not given | reference: positive over tested donors | frequency of responding donors | 100
CCCNC(=O)[C@H]1O[C@@H]1C(=O)N[C@H](C(=O)N1CCC[C@H]1C(=O)OC)[C@@H](C)CC | Replicase polyprotein 1ab, main protease (rep, Severe acute respiratory syndrome coronavirus 2, UniProt P0DTD1) | reporter gene (Gaussia luciferase), inhibitor | – | 20 µM | – | inhibition | -2.88%
ILFTRFFYV | – | AIM | peptide, CD8+ T cells from PBMC, human donors | HLA-A*02:01 restricted, unit not given | reference: positive over tested donors | frequency of responding donors | 50
CC[C@H](C)[C@H](NC(=O)[C@H](CC(C)C)NC(=O)[C@H](Cc1c[nH]c2ccccc12)NC(=O)[C@H](CCC(N)=O)NC(=O)[C@@H](NC(=O)[C@H](Cc1ccccc1)NC(=O)[C@H](C)NC(=O)[C@H](CCCCNC(=O)COCCOCCNC(=O)COCCOCCNC(=O)CC[C@H](NC(=O)CCCCCCCCCCCCCCCCCCC(=O)O)C(=O)O)NC(=O)[C@H](CCC(N)=O)NC(=O)[C@H](C)NC(=O)[C@@H](NC(=O)[C@H](CCCCN)NC(=O)[C@H](CC(=O)O)NC(=O)[C@H](CC(C)C)NC(=O)C(C)(C)NC(=O)[C@@H](NC(=O)[C@H](CO)NC(=O)[C@H](Cc1ccc(O)cc1)NC(=O)[C@H](CC(=O)O)NC(=O)[C@H](CO)NC(=O)[C@@H](NC(=O)[C@H](Cc1ccccc1)NC(=O)[C@@H](NC(=O)CNC(=O)[C@H](CCC(=O)O)NC(=O)C(C)(C)NC(=O)[C@@H](N)Cc1ccc(O)cc1)[C@@H](C)O)[C@@H](C)O)[C@@H](C)CC)[C@@H](C)CC)C(C)C)C(=O)N[C@@H](C)C(=O)NCC(=O)NCC(=O)N1CCC[C@H]1C(=O)N[C@@H](CO)C(=O)N[C@@H](CO)C(=O)NCC(=O)N[C@@H](C)C(=O)N1CCC[C@H]1C(=O)N1CCC[C@H]1C(=O)N1CCC[C@H]1C(=O)N[C@@H](CO)C(N)=O | – | – | healthy human subjects | 0.5 mg once weekly x4, day 29, least-squares mean | reference: baseline | change in systolic blood pressure | 0.19 mmHg
Nc1ncnc2c([C@@H]3N[C@H](CO)[C@@H](O)[C@H]3O)c[nH]c12 | Junin virus | viral replication | HeLa, Romero | 12.5 µM | – | inhibition | 0%

Repeated from above:
Molecule | target or system | assay | system | setting | scale | endpoint | value
CCCNC(=O)[C@H]1O[C@@H]1C(=O)N[C@H](C(=O)N1CCC[C@H]1C(=O)OC)[C@@H](C)CC | Replicase polyprotein 1ab, main protease (rep, Severe acute respiratory syndrome coronavirus 2, UniProt P0DTD1) | reporter gene (Gaussia luciferase), inhibitor | – | 20 µM | – | inhibition | -2.88%
